Results pooled from the literature.
Each numbered part is a random draw from the data of one study; scales do not carry over between parts.
UniProt P07947, sequence (whole entry, looked up): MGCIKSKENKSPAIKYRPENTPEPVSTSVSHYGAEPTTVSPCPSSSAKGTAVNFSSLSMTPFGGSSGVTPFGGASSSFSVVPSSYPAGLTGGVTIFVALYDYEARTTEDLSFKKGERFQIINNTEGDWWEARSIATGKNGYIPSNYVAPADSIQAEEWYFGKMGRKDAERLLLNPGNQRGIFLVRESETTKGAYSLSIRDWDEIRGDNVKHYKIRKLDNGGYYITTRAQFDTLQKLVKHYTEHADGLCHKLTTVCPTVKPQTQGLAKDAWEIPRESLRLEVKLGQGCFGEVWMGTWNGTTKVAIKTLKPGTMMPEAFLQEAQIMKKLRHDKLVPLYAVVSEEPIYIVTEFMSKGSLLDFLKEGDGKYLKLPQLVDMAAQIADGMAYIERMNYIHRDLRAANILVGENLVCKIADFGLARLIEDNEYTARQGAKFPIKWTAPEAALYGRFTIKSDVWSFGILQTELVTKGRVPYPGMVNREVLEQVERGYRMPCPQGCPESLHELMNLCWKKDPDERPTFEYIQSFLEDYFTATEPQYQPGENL
UniProt Q9NWZ3, sequence (whole entry, looked up): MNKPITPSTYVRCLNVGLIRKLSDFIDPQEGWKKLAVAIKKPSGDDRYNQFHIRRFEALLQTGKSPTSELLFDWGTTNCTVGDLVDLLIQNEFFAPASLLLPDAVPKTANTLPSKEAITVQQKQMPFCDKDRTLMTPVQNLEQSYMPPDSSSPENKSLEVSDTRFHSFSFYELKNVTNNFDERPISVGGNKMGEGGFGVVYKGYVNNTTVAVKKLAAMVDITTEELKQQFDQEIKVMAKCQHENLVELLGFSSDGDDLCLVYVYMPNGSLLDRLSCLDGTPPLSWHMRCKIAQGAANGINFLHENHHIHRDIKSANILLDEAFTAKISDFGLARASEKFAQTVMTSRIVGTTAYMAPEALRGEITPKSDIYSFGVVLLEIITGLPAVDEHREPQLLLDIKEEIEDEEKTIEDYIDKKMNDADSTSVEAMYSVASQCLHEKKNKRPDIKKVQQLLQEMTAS
UniProt O60285, sequence (whole entry, looked up): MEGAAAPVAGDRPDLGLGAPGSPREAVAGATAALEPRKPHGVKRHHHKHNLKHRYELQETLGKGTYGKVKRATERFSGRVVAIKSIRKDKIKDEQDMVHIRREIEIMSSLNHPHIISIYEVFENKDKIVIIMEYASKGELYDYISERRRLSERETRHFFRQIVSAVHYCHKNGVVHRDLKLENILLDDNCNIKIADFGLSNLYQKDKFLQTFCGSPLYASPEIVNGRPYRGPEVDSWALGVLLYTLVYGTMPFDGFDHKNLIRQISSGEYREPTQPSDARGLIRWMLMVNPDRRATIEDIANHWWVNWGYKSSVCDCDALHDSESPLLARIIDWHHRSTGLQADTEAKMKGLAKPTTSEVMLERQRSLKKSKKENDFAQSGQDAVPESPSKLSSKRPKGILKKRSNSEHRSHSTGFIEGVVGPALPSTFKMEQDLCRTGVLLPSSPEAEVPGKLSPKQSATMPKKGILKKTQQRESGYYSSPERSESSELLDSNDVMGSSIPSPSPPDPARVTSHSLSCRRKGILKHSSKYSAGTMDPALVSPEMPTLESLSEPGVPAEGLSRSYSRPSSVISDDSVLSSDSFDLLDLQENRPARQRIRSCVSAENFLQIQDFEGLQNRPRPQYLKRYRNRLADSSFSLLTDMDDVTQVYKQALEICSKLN
UniProt Q13873, sequence (whole entry, looked up): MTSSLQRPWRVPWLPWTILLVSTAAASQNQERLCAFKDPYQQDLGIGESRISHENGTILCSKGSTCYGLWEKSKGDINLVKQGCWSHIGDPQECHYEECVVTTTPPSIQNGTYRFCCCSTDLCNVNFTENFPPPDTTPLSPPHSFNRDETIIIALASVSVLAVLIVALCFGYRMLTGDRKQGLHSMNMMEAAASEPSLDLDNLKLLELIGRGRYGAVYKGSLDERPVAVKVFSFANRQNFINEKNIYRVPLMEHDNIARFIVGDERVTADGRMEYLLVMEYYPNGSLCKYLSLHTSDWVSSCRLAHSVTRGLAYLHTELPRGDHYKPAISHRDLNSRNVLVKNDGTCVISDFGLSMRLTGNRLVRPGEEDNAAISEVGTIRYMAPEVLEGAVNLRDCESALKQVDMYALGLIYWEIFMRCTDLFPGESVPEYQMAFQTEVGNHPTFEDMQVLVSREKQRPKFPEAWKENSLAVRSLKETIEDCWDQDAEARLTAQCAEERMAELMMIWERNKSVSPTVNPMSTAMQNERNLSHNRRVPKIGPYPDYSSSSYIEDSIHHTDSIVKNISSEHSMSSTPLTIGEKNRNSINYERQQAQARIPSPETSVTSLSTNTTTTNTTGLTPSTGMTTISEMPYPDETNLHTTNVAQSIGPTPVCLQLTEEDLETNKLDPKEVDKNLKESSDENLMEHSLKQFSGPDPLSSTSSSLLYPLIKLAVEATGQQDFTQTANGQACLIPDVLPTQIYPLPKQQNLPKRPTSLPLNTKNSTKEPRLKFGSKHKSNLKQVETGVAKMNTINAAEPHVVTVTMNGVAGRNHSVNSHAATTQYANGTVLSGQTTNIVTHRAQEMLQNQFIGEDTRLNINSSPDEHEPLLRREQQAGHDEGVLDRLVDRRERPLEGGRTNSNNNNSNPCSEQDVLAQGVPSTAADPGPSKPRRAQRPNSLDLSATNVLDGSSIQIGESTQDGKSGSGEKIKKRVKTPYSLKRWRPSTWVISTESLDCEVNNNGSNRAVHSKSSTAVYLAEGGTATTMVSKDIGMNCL

Block 1 — mode: agonist; measurement: EC50
Target: Beta-1 adrenergic receptor (ADRB1, Homo sapiens, UniProt P08588)
UniProt P08588, sequence (whole entry, looked up): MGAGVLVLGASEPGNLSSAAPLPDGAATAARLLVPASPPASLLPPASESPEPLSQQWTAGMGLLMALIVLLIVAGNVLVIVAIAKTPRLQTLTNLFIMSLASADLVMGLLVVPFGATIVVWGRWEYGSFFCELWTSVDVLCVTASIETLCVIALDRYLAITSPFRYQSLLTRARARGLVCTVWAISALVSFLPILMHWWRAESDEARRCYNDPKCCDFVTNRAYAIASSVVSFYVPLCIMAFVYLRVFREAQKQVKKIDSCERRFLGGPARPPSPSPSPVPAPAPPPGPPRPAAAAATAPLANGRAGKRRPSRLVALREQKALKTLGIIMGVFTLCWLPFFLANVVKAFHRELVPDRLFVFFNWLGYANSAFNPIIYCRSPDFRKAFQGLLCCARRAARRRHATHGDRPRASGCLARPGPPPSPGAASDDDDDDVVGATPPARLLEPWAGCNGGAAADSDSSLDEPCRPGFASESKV
COc1cc(CNCCc2ccccc2C)ccc1OCC(O)CN1CCOCC1 (centres unmarked): 22.4 µM
CN(c1ccccc1)c1cc(=O)c2ccnc(NCc3cnccn3)c2o1: ≥ 100 µM
Cc1noc2c(-c3cccc(CO)c3)cc(-c3cccc(C(F)(F)F)c3)nc12: ≥ 100 µM
Cc1nc(Cn2nc(-c3ccccc3)ccc2=O)nc2ccccc12: ≥ 100 µM
N[S+](=O)([O-])c1ccc(Cc2c(-c3ccc(F)c(C#Cc4ccc(CNCCOCCOCCNC(=O)COc5cccc6c5C(=O)N(C5CCC(=O)NC5=O)C6=O)s4)c3)nn(-c3nc(C(=O)O)cs3)c2CC2CC2)cc1F (centres unmarked): ≥ 100 µM
CN1CCC(Cn2ccc3c(N4CCOCC4)nc(-c4cccc5[nH]ncc45)cc32)CC1: ≥ 100 µM

Block 2 — read-out: enzyme activity; mode: inhibitor; tested at: 0.5 µM; baseline: control; measurement: remaining activity
Target: Serine/threonine-protein kinase ULK3 (ULK3, Homo sapiens, UniProt Q6PHR2)
Construct (Q6PHR2 1-472): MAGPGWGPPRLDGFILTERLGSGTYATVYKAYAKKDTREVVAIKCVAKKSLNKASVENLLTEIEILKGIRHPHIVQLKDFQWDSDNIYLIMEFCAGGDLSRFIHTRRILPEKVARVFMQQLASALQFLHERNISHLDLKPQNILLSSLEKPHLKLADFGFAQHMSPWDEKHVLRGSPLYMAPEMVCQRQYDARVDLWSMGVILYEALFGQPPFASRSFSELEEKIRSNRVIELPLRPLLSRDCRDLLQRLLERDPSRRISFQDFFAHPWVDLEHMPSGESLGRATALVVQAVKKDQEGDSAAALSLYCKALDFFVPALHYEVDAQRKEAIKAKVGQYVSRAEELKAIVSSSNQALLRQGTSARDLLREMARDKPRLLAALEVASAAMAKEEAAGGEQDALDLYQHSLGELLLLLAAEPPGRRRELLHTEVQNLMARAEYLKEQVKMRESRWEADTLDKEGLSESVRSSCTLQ
Cc1ccc(Nc2nccc(N(C)c3ccc4c(C)n(C)nc4c3)n2)cc1S(N)(=O)=O: 102%
O=C(O)c1ccc2c3c1cccc3c(=O)n1c3ccccc3nc21: 79.8%
CNC(=O)c1cc(Oc2ccc(NC(=O)Nc3ccc(Cl)c(C(F)(F)F)c3)cc2)ccn1: 103%
Cc1nc(-c2ccccc2)c(-c2ccncc2)o1: 94.3%
O=C(CCCc1ccc(-c2ccccc2F)cc1)Nc1ccc(O)cc1: 103%
CO[C@H]1C[C@@H]2CC[C@@H](C)[C@@](O)(O2)C(=O)C(=O)N2CCCC[C@H]2C(=O)O[C@H]([C@H](C)C[C@@H]2CC[C@@H](O)[C@H](OC)C2)CC(=O)[C@H](C)/C=C(\C)[C@@H](O)[C@@H](OC)C(=O)[C@H](C)C[C@H](C)/C=C/C=C/C=C/1C: 85.6%
CCOC(=O)c1c(C)[nH]c(/C=C2\C(=O)Nc3ccccc32)c1C: 76.7%
COc1cc2nccc(Oc3ccc(NC(=S)NC(=O)c4ccccc4C)cc3)c2cc1OC: 86.8%
NCCNc1ncc(C(N)=O)c(Nc2cccc(C(F)(F)F)c2)n1: 83.9%
Nc1ccc2ncnc(NCCc3ccc(Oc4ccccc4)cc3)c2c1: 112%
O=C1NC(=O)C(c2cn(CCCn3ccnc3)c3ccccc23)=C1Nc1ccccc1: 84.7%
Cc1ccc(NC(=O)c2ccc(CN3CCN(C)CC3)cc2)cc1Nc1nc(-c2cccnc2)cs1: 104%
C#Cc1cccc(Nc2ncnc3cc(OCCOC)c(OCCOC)cc23)c1: 105%
Cc1cccc(-c2[nH]c(C(C)(C)C)nc2-c2ccc3c(c2)OCO3)n1: 80.4%
Oc1ccc(-c2nc(-c3ccncc3)c(-c3ccc(F)cc3)[nH]2)cc1: 85.5%
N#CC(C#N)=C(N)/C(C#N)=C/c1ccc(O)cc1: 67.8%

Block 3 — read-out: cell-free assay; technique: competition with immobilised ligand; tested at: 0.1 µM; measurement: remaining binding
SMILES: Nc1c(C(=O)NCc2ccc(C(=O)NCCCC3CCCCC3)cc2)cnn1-c1ccccc1
Interleukin-1 receptor-associated kinase 4 (IRAK4, Homo sapiens, UniProt Q9NWZ3): 100%
Epidermal growth factor receptor (EGFR, Homo sapiens, UniProt P00533, del746-750): 98%
NUAK family SNF1-like kinase 1 (NUAK1, Homo sapiens, UniProt O60285): 100%
Epidermal growth factor receptor (EGFR, Homo sapiens, UniProt P00533, del752-759): 100%
Tyrosine-protein kinase Yes (YES1, Homo sapiens, UniProt P07947): 100%
Bone morphogenetic protein receptor type-2 (BMPR2, Homo sapiens, UniProt Q13873): 100%

Block 4 — organism: Sarcocystis neurona; read-out: parasite activity; tested at: 10 µM; time: 96 h; measurement: activity class
C=CC1=C(C(=O)O)N2C(=O)[C@@H](NC(=O)/C(=N\OCC(=O)O)c3csc(N)n3)[C@H]2SC1: inactive
O=[N+]([O-])c1cccc2cn[nH]c12: inactive
O=C1c2c(O)cc(O)cc2OC(c2ccc(O)c(O)c2)C1O (centres unmarked): inactive
CN1CCN(C2=Nc3ccccc3Oc3ccc(Cl)cc32)CC1: inactive
C=CCc1ccc(O)c(-c2ccc(O)c(CC=C)c2)c1: inactive
CC(=O)N1CCN(c2ccc(OCC3COC(Cn4ccnc4)(c4ccc(Cl)cc4Cl)O3)cc2)CC1 (centres unmarked): inactive
Cc1cc(NS(=O)(=O)c2ccc(N)cc2)no1: inactive

A few entries again (block 2):
Oc1ccc(-c2nc(-c3ccncc3)c(-c3ccc(F)cc3)[nH]2)cc1: 85.5%
CNC(=O)c1cc(Oc2ccc(NC(=O)Nc3ccc(Cl)c(C(F)(F)F)c3)cc2)ccn1: 103%
CO[C@H]1C[C@@H]2CC[C@@H](C)[C@@](O)(O2)C(=O)C(=O)N2CCCC[C@H]2C(=O)O[C@H]([C@H](C)C[C@@H]2CC[C@@H](O)[C@H](OC)C2)CC(=O)[C@H](C)/C=C(\C)[C@@H](O)[C@@H](OC)C(=O)[C@H](C)C[C@H](C)/C=C/C=C/C=C/1C: 85.6%
COc1cc2nccc(Oc3ccc(NC(=S)NC(=O)c4ccccc4C)cc3)c2cc1OC: 86.8%
CCOC(=O)c1c(C)[nH]c(/C=C2\C(=O)Nc3ccccc32)c1C: 76.7%
Cc1ccc(Nc2nccc(N(C)c3ccc4c(C)n(C)nc4c3)n2)cc1S(N)(=O)=O: 102%
